Measurements of several laboratories.
Each numbered part is a random draw from the data of one study; scales do not carry over between parts.

Set 1 — method: protein-binding microarray; molecule type: double-stranded DNA, one strand shown; medium: in vitro; tested at: 0.8 µM; notes: whole 60-bp probe, no competitor; direction: higher = stronger binding; shared flanks, not repeated: … GTCTTGATTCGCTTGACGCTGCTG
Target: Centromere-binding protein 1, full length, N-terminal tag (CBF1, Saccharomyces cerevisiae, UniProt P17106, residues 1-351)
Sequence of UniProt P17106 (whole entry, looked up): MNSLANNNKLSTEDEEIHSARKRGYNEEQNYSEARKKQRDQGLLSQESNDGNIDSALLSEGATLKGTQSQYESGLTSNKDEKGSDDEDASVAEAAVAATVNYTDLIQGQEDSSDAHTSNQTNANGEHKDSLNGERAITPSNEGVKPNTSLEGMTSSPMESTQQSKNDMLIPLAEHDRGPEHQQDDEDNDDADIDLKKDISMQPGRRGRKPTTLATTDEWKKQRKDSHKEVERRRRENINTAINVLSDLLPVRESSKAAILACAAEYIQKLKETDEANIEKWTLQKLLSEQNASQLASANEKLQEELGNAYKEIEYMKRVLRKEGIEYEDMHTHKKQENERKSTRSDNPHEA
Oligonucleotide	fluorescence intensity [a.u.]
CTAGGTTTTTTACAGCTGATGATTGATGCATGATTC	544
CTAATATAAGGTGTTCACGCGATTTTCTTGTTATTC	611
CTAAAAAGAAACAAGCACGCGCAAGAAAACCGCTTC	992
CCTAACTACTATAATCATGAAACATAGCTTCGTACA	521
CCTAACTACTATAGACACGTTTCATAGCTTCGTACA	634
GAAAATGGTAACTGTGACCCATGTACTCCGCTATAG	569
CTACGTATTACTTTTACCGTGATGAAGATTGGCTTC	580
GAAGAGTTCTCGGGACACGGGAAAGACAATGGATAG	590
GAAGACATGTTGTTCGTGATGATCTTTCTTCCTTAG	538
GAATATGTTCCGTGTAAGGTGATATTACTCAAATAG	552
GAATTCTACGTACAAAACGTGTCTGCAGAACCTTAG	568
CTAATACAGGAGTGCCACATGCGAAAGCGGAGTTTC	527
CTATTCTCAATTCATGTGGCTTCAAACATTTAATTC	631
GAAGTTCATTACAAAAACGTGGTTCTATGGTTCTAG	588
CTACTCCATTTCTTAACGGTGACGAAGGATCACTTC	545
CCTAACTACTATAGTGGTGGGCAATAGCTTCGTACA	487
CCTAACTACTATAGTCGCACGCCATAGCTTCGTACA	512
CTACGTTCACATAGTCACATAACCACTAGTCACTTC	563
CCTAACTACTATATTTACGTGACATAGCTTCGTACA	631
CTACTCTATAGGCATCACCATTGAAAAGTATGTTTC	563
GAAGCTTTAAAAAATCACGCTCTGTGGTGCTAATAG	689
GAAGACGGCAGCTGGCTCGTGGGATTTTTTCAATAG	536
CTACGCTCATAATATCATGTGATTCTCTCGATGTTC	3230
GAATGTATATATACGCATGTTCTTCATAAGTCATAG	570
CTATCGGACACTTTTCCCGTCACGTGGAAACGGTTC	12500

Set 2 — method: RNA Bind-n-Seq; molecule type: RNA; medium: in vitro; tested at: 365 nM; baseline: no-protein control; direction: higher = stronger binding
Target: RNA binding protein fox-1 homolog 2, RRM domain, GST-SBP tag (RBFOX2, Homo sapiens, UniProt O43251-10, residues 100-194)
Notes: natural RNA segment, single round, ends assumed
Shared flanks, not repeated: GGGAGUUCUACAGUCCGACGAUC … UGGAAUUCUCGGGUGCCAA
Target sequence (chain): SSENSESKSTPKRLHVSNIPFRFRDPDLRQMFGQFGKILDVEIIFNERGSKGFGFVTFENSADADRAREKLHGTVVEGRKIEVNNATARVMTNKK
Oligonucleotide	RBNS enrichment (R)
AUGUAACAGAACAGUCUAGAGAAGAUUAAGGACCACAUGGCUUUCUUGCUCUACUUGAAAUUAAUUGUGAGCAUAAGCUUGUUUCUGGAGUCUUCUUACAUUGUUGGUUC	0.434
CUCCACUGUCUAUGUAGGUUGUGGGUGUGGGGAGGUUGAGGUAGAGGGAAGAGGGUCGAGAGGGUUCCACUGUCUUGAGAGCUUCCUUUUGCUUUCUUCUCUUGCCUCUG	0.728
UGGGGGCACCCCCUCUCCCUGGGAUAGCCACUGUCGGGGAGCACAGGACCAGCCUCUGGAUCAGUCCCUCUCUGCCCCUUCACUUCUGUCUCUAGCUCACUGGCUCUGUG	0.631
AUGUGGCAGUUAAACACUACCUUGAUCAUUCUCUCCUCUUUCCUCGAGGAACUCCUGGAGGGUUUGAGCGUCUGGAAACUCUCUGCUCUGACCCGAGGAAGCACCCUCCU	0.203
ACAGUUGAUCCUUGUAAAUACAUUAUGCAGAAUAUUUAUUUUUCUUAAAAUGUAUUUUCACAACCCCAGUGGCUGUGGCCAAAUGAGUCCUCAUUGAACACGAGAUGGAG	0.288
AGUCACUACAUUAUCUCAGCAGAGAGACUUUAAUUAAACUGAUUUGUUUCCAAUGUCGGGUUCACUUAAAGGAUUUGACUUACCACCAGAGCAUAGAAAAGCAUGCAAGG	1.04
AGGACAAGAGAGUAGGCAGGCUUACAGGUGCAGACUGAGUGCUUCUCCGCCUGCCCUCUUCCCCUUGUUUCCUUGGGUGAGUGUGGGGGGCAGCCUGCUGUCCCUCCCAC	0.183
UAAUCUUGUGGCUGCUUUCUUUUUAUUUCCCACUUUCUCUGUUUUAUAACAGAACCUUCUGUAUAGGUUCUGGCAAUCAAGAGAUGUAUAAUAAAACAUAGCUUACGUGA	0.457
CUCUUAAAUAUCUCGAUGUAUUUAAUGCCUUGUUUUCUCUCCUGCCGCAGGAUAAAGAAAAUGAUAAACCCACAAAGUGCAUAUUUCAAAUAGCAUAUAUCUGAAAUCGU	0.331
CAUUUAGGUGAUGGUGUUUGAUUCAGAGAUGGCUGAAUUUCUAUUCUUAGCUUAUUGUGACUGUUUCAGAUCUAGUUUGGGAACAGAUUAGAGGCCAUUGUCUUCUGUCC	0.311
AGAUGCACAAUCCUUUCCAACCUACAACUUCCUCAAAAUCCAGAGCCAGCCAAAGGAUCAAUGAAGGAUCAAGGUUGCCAGGCAAAGGUUGAGGAAGAAUGCCUGACUCA	0.494
GUGUGAAUUUUCUUUAAAAAACUUAAGGAGUCUUUGCUACCUUCUGCUUGUUGAGUUGUUUUGGCAUUCAUAUUAAAAGCCAGCAUCUCACUAUUUAUUGACAGGUUGGG	0.835

Set 3 — method: universal PBM; molecule type: double-stranded DNA, one strand shown; medium: in vitro; tested at: 600 nM; direction: higher = stronger binding
Target: Sal-like protein 4, full length isoform A (SALL4, Homo sapiens, UniProt Q9UJQ4, residues 1-1053)
Sequence of UniProt Q9UJQ4 (whole entry, looked up): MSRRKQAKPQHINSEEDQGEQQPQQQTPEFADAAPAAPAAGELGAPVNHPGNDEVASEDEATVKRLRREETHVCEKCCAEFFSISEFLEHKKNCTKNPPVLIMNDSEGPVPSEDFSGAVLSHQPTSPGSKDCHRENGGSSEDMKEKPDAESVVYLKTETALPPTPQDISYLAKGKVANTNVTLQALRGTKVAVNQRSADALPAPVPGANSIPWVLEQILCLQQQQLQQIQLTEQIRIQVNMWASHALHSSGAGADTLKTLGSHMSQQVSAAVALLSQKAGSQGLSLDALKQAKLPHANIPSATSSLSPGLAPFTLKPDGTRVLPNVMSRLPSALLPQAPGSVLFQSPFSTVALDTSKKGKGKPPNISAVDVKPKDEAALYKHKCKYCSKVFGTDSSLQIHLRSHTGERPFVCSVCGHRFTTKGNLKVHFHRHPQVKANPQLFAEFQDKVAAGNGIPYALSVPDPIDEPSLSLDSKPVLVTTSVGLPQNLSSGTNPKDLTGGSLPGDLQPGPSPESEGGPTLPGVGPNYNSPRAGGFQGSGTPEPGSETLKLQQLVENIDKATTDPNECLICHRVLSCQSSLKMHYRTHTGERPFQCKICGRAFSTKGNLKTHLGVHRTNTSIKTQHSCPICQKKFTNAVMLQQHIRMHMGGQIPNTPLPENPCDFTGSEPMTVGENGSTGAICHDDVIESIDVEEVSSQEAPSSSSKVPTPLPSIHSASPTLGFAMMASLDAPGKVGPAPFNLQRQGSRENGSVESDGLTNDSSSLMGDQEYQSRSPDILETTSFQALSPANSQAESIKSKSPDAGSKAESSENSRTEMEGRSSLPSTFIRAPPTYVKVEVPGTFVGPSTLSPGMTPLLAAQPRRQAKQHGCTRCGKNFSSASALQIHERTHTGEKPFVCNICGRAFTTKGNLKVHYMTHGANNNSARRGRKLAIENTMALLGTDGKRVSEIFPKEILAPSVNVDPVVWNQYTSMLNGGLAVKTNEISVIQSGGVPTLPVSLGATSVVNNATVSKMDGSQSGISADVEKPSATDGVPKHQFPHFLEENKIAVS
Notes: 8-mer, flanks averaged, mean of replicates
Oligonucleotide	E-score
CACTCGGG	-0.311
CCCAAGCC	-0.387
AGGTGTAC	-0.0298
CAGGACTA	-0.108
AGAGGTTG	-0.0862
ACGTTCGG	-0.267
CGGCCCCC	-0.367
ACTCTAAA	0.166
GAGTCTGC	-0.236
TTTGAAAA	0.376
AAAGAGAC	-0.0047
TCTGTTAA	0.192
AACCAATC	0.0576
AGCACCTG	-0.0578
ACCATGAG	-0.0415
CAAACTTC	0.0619
CACGAGTA	0.0939
AGCTACAC	0.0599
CGAGGACA	-0.237
GAAGCAAC	-0.0982
CACAGGAC	-0.146
GCGCCTCA	-0.207
CGTTACGC	-9e-05
CCGCCCAG	-0.314
CGGTCACC	-0.357

Set 4 — method: RNA Bind-n-Seq; molecule type: RNA; medium: in vitro; tested at: 1 µM; notes: whole 134-nt RNA, ends assumed; added: 150 mM KCl; baseline: input library; direction: higher = stronger binding
Target: Ras GTPase-activating protein-binding protein 1, C-terminal RGG region (G3BP1, Homo sapiens, UniProt Q13283)
Sequence of UniProt Q13283 (whole entry, looked up): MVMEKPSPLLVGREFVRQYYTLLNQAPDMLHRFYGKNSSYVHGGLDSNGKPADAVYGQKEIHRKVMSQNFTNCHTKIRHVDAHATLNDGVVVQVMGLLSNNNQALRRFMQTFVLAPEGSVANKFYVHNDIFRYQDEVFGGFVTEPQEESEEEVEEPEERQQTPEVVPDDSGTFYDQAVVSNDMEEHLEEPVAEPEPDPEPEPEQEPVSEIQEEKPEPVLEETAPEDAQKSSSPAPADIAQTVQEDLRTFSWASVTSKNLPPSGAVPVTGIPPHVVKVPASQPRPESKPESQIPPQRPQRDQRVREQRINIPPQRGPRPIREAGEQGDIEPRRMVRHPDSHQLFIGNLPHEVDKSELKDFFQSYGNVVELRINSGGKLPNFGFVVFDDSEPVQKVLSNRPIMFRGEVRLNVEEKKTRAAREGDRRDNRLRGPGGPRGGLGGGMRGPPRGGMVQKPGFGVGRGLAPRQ
Shared flanks, not repeated: GGGAGUUCUACAGUCCGACGAUC … UGGAAUUCUCGGGUGUCAAGG
Oligonucleotide	log2 enrichment
UCAAGUCCUGUGCUACACAUCGUAUGUACCGAAUCGGAGGAAAGGAAAAAAAGGAAAGUAUUAUGUUACGCCGUUCGGAUCUGCACUUCC	-1.42
CAAGUCCUGUGCUACACAUCGUAUGUACCGAAUCGGUUUGGGGUUUGGGGUUUGGGAAAGUAUUAUGUUACGCCGUUCGGAUCUGCACUU	-0.43
UGGCCCUGGUGGCAUGCGGGGAUGAAGAGGUGGCCUCAUGGAUCGUGGUGGUCCCGGUGGAAUGUUCAGAGGUGGCCGUGGUGGAGACAG	2.04
CAAGUCCUGUGCUACACAUCGUAUGUACCGAAUCGGGUGGGAAAGGGUUUUUGGGAAAGUAUUAUGUUACGCCGUUCGGAUCUGCACUUC	1.14
CAAGUCCUGUGCUACACAUCGUAUGUACCGAAUCGGGUUUUGGUUUUGGGUUUUGGAAAGUAUUAUGUUACGCCGUUCGGAUCUGCACUU	-1.78
AAGUCCUGUGCUACACAUCGUAUGUACCGAAUCGGGAGGGAAAAAGGGUUUUUGGGAAAGUAUUAUGUUACGCCGUUCGGAUCUGCACUU	0.881
AAGUCCUGUGCUACACAUCGUAUGUACCGAAUCGGUUUUGGGGUUUUGGGGUUUUGGAAAGUAUUAUGUUACGCCGUUCGGAUCUGCACU	-0.647
UGGGAGGUGGAUUUUGUUUAUUUUUUUAGCUCAUUGCCAGGGGUGGGAAUUUUUUUUUAAUAUGUGUCAUGAAUAAAGUUGUUUUUGAAA	3.77
UCCUGUGCUACACAUCGUAUGUACCGAAUCGGGGUUUUUUUGGGGAGGGGUUUUUGGGGAAAGUAUUAUGUUACGCCGUUCGGAUCUGCA	1.78
UCAAGUCCUGUGCUACACAUCGUAUGUACCGAAUCGGGCCGGGCCGGGGCCGGGAAAGUAUUAUGUUACGCCGUUCGGAUCUGCACUUCC	0.0465
GUCCUGUGCUACACAUCGUAUGUACCGAAUCGGGUGGGAAAAAAAGGGUUUUUUUGGGAAAGUAUUAUGUUACGCCGUUCGGAUCUGCAC	-0.248
GCAGGAAGUAAAAACAAAUGGAAAUGCUUCGGAUAGUGGCAGGGGUGGGGGUUGCUGAGGAAAGGGUGGGAUGGGAGUGGGUAAAGAGUU	2.11
CCUCAAGUCCUGUGCUACACAUCGUAUGUACCGAAUCGGAAAGGAGGAAAGGAAAGUAUUAUGUUACGCCGUUCGGAUCUGCACUUCCAG	-0.85
UACCUGAUCAAUGACAGAGCCUUCUGAGGACAUUCCAAGACAGUAUACAGUCCUGUGGUCUCCUUGGAAAUCCGUCUAGUUAACAUUUCA	-2.22

Repeated from above (set 3):
Oligonucleotide	E-score
ACCATGAG	-0.0415
ACGTTCGG	-0.267
CACAGGAC	-0.146
CACTCGGG	-0.311
CGTTACGC	-9e-05
AGCACCTG	-0.0578
AAAGAGAC	-0.0047
AGCTACAC	0.0599
